# Measured values collected from several papers.
# Protocols differ between the studies behind these lines. Values joined by “and” are separate records of one study, mostly repeats; a detail may differ. ± marks the error that the study gave.
# rep main protease: Replicase polyprotein 1ab, main protease (rep, Severe acute respiratory syndrome coronavirus 2, UniProt P0DTD1)
Compound,target or system,assay,system,conditions,scale,measurement,value
O=C(/C=C/c1ccc(O)c(O)c1/C=C/c1ccc(O)c(O)c1)O[C@H](Cc1ccc(O)c(O)c1)C(=O)O,SARS-CoV-2,viral replication,Vero E6,0.7812 µM,,CPE inhibition,0%
COc1cccc(CNC(=O)C2CCN(Cc3cc4ccccc4n3Cc3ccccc3)CC2)c1OC,SARS-CoV-2,cytopathic effect,USA_WA1/2020,"retest, 8-point, duplicates",,efficacy,0%
CC(C)(C)[C@H](NC(=O)C(F)(F)F)C(=O)N1C[C@H]2[C@@H]([C@H]1C(=O)N[C@H](C#N)C[C@@H]1CCNC1=O)C2(C)C,SARS-CoV-2,viral replication,Delta strain,48 h,,EC90,0.0329 ± 0.0029 µM
CN(C)CCNC(=O)c1ccc2c(c1)C1(CCN(CC3CC3)C1)CN2Cc1ccccc1 (centres unmarked),SARS-CoV-2,cytopathic effect,USA_WA1/2020,"round 2, 5-point",,maximum response,94.3%
CN1CCN(CC/C=C2/c3ccccc3Sc3ccc(S(=O)(=O)N(C)C)cc32)CC1,SARS-CoV-2,"viral replication, high-content imaging screen",,cell-based,,EC50,5.75 µM
Cc1nn(-c2ccc(Cl)cc2)c2c1C(c1c(Cl)cccc1Cl)C(C#N)=C(N)O2 (centres unmarked),SARS-CoV-2,viral replication,Vero,1 µM,,viral reduction,0.393%
Nc1nc(N)c(N=O)c(OCC2CCCCC2)n1,SARS-CoV-2,viral replication,Huh-7,,,IC50,> 2 µM
CC[C@H](C)[C@H](NC(=O)[C@H](CC(C)C)NC(=O)[C@H](Cc1c[nH]c2ccccc12)NC(=O)[C@H](CCC(N)=O)NC(=O)[C@@H](NC(=O)[C@H](Cc1ccccc1)NC(=O)[C@H](C)NC(=O)[C@H](CCCCNC(=O)COCCOCCNC(=O)COCCOCCNC(=O)CC[C@H](NC(=O)CCCCCCCCCCCCCCCCCCC(=O)O)C(=O)O)NC(=O)[C@H](CCC(N)=O)NC(=O)[C@H](C)NC(=O)[C@@H](NC(=O)[C@H](CCCCN)NC(=O)[C@H](CC(=O)O)NC(=O)[C@H](CC(C)C)NC(=O)C(C)(C)NC(=O)[C@@H](NC(=O)[C@H](CO)NC(=O)[C@H](Cc1ccc(O)cc1)NC(=O)[C@H](CC(=O)O)NC(=O)[C@H](CO)NC(=O)[C@@H](NC(=O)[C@H](Cc1ccccc1)NC(=O)[C@@H](NC(=O)CNC(=O)[C@H](CCC(=O)O)NC(=O)C(C)(C)NC(=O)[C@@H](N)Cc1ccc(O)cc1)[C@@H](C)O)[C@@H](C)O)[C@@H](C)CC)[C@@H](C)CC)C(C)C)C(=O)N[C@@H](C)C(=O)NCC(=O)NCC(=O)N1CCC[C@H]1C(=O)N[C@@H](CO)C(=O)N[C@@H](CO)C(=O)NCC(=O)N[C@@H](C)C(=O)N1CCC[C@H]1C(=O)N1CCC[C@H]1C(=O)N1CCC[C@H]1C(=O)N[C@@H](CO)C(N)=O,,refers to: treatment-emergent back pain,healthy subjects,"4.5 mg, multiple ascending dose",,subjects with adverse event,0%
Nc1ncnc2c([C@@H]3N[C@H](CO)[C@@H](O)[C@H]3O)c[nH]c12,Marburg virus,viral replication,"HeLa, Angola",6.3 µM,,inhibition,62.3%
O=C1NC(=O)C(c2ccccc2)(c2ccccc2)N1,SARS-CoV-2,viral replication,Huh-7,,,IC50,> 2 µM
Cc1nccn1CC1CCc2c(c3ccccc3n2C)C1=O (centres unmarked),SARS-CoV-2,"viral replication, anti-nucleoprotein immunostaining",Vero E6,,,IC50,> 10 µM
CC[C@@H](C(=O)[C@@H](C)[C@@H](O)[C@H](C)CCc1ccc(C)c(O)c1C(=O)O)[C@H]1O[C@](CC)([C@H]2CC[C@](O)(CC)[C@H](C)O2)C[C@@H]1C,SARS-CoV-2,"viral replication, GFP plate reader screen",,cell-based,,EC50,> 0.631 µM
Cc1nn(-c2ccc(Cl)cc2)c2c1C(c1ccc(Br)cc1)C(C#N)=C(N)O2 (centres unmarked),SARS-CoV-2,,Vero C1008,1 µM,reference: positive control,viral titre log reduction,0.0468 log10
CCN(CC)CCNC(=O)c1ccc(-c2nc(CN3CCc4ccccc43)c(C)o2)cc1,SARS-CoV-2,cytopathic effect,USA_WA1/2020,"retest, 8-point, duplicates",,efficacy,82.8%
Cc1nn(-c2ccc(Cl)cc2)c2c1C(c1ccc(Cl)cc1)C(C#N)=C(N)O2 (centres unmarked),SARS-CoV-2,viral replication,Vero,10 µM,,viral reduction,8.49%
CCN(CC)Cc1ccc2cc(COC(=O)Nc3ccc(C(=O)NO)cc3)ccc2c1,SARS-CoV-2,"viral replication, high-content imaging screen",,cell-based,,EC50,> 100 µM
O=C(O[C@@H]1Cc2c(O)cc(O)cc2O[C@@H]1c1cc(O)c(O)c(O)c1)c1cc(O)c(O)c(O)c1,SARS-CoV-2,viral cytopathic effect,Vero E6,0.7812 µM,,mean inhibition,0%
CC(C)C(=O)OC[C@H]1O[C@@H](n2ccc(NO)nc2=O)[C@H](O)[C@@H]1O,SARS-CoV-2,viral replication,human airway epithelium,,,lowest active concentration,1 µM
CCN(CC)CCCNC(=O)c1ccc(-c2nc(CN3CCc4ccccc43)c(C)o2)cc1,SARS-CoV-2,cytopathic effect,USA_WA1/2020,"retest, 8-point, duplicates",,maximum response,97.2%
CC(C)(C)[C@H](NC(=O)C(F)(F)F)C(=O)N1C[C@H]2[C@@H]([C@H]1C(=O)N[C@H](C#N)C[C@@H]1CCNC1=O)C2(C)C,SARS-CoV-2,"viral replication, infectious virus",Vero E6,3.333 µM,,inhibition,92.8%
COc1ccc(N2CCN(CCCNC(=O)c3cc(Nc4ccc(OC)cc4OC)nc4ccccc34)CC2)cc1,SARS-CoV-2,"cytopathic effect, cell-based CPE",USA_WA1/2020,"round 2, 5-point dilution",,AC50,11.2 µM
Cn1cncc1[C@@](N)(c1ccc(Cl)cc1)c1ccc2c(c1)c(-c1cccc(Cl)c1)cc(=O)n2C,SARS-CoV-2,viral replication,"Vero C1008, USA-WA1/2020","2.5 µM, reconfirmation",,inhibition,42.6%
CC1CCCCN1CCCNC(=O)c1cc(Sc2ccc(Cl)cc2)nc2ccccc12 (centres unmarked),SARS-CoV-2,cytopathic effect,USA_WA1/2020,first round 5-point,,maximum response,91.7%
CNC(=O)[C@@H](NC(=O)[C@H](CC(C)C)[C@H](O)C(=O)NO)C(C)(C)C,snake venom metalloproteinase,"proteolytic activity, inhibitor","Daboia russelii, venom KA",with: azocasein,,IC50,1.93 µM and 1.75 µM and 2.26 µM
Cc1cc(OCCN2CCOCC2)nn1-c1ccc2ccccc2c1,SARS-CoV-2,,Vero E6,"concentration not given, NYC laboratory",,viral replication inhibition,inactive
COc1ccc2c(c1)N(C[C@H](C)CN(C)C)c1ccccc1S2,SARS-CoV-2,"viral replication, high-content imaging screen",BetaCov/Belgium/GHB-03021/2020,cell-based,,EC50,> 50.1 µM
CC1CCN(CCCNC(=O)c2cc(Sc3ccc(F)cc3)nc3ccccc23)CC1,SARS-CoV-2,cytopathic effect,USA_WA1/2020,,,AC50,14.1 µM
O=C(N[C@H](CO)[C@H](O)c1ccc([N+](=O)[O-])cc1)C(Cl)Cl,SARS-CoV-2,,,"concentration not given, Paris laboratory",,viral replication inhibition,inactive
CN(C)CCC(c1ccc(Cl)cc1)c1ccccn1 (centres unmarked),SARS-CoV-2,viral replication,Vero E6,inactive set pIC50 4,,IC50,> 10 µM
COc1cc2c(N3CCN(C(=O)Nc4ccc(OC(C)C)cc4)CC3)ncnc2cc1OCCCN1CCCCC1,SARS-CoV-2,"viral replication, high-content imaging screen",,cell-based,,EC50,> 100 µM
CC(C)/N=c1\cc2n(-c3ccc(Cl)cc3)c3ccccc3nc-2cc1Nc1ccc(Cl)cc1,SARS-CoV-2,viral replication,"Huh-7-ACE2, USA-WA1/2020",,,EC90,2.33 µM
CN(C)C(=O)COC(=O)Cc1ccc(OC(=O)c2ccc(NC(=N)N)cc2)cc1,SARS-CoV-2,viral replication,Huh-7,,,IC50,> 2 µM
Cn1cnc(Cn2c(=O)[nH]/c(=N\c3cc4cn(C)nc4cc3Cl)n(Cc3cc(F)c(F)cc3F)c2=O)n1,,,"human, normal renal function","oral, 375 mg, decreased GFR TEAE, Severe severity",,patients with adverse event,0%
CC(=O)c1ccc(S(=O)(=O)NC(=O)NC2CCCCC2)cc1,SARS-CoV-2,viral replication,Huh-7,,,IC50,> 2 µM
CC(Nc1nc(N2CCN(C)CC2)nc2ccccc12)c1ccccc1 (centres unmarked),SARS-CoV-2,"cytopathic effect, cell-based CPE",USA_WA1/2020,"round 2, 5-point dilution",,AC50,12.6 µM
CN[C@]1(c2ccccc2)CC[C@]2(CC1)OCCc1c3cc(F)ccc3[nH]c12,SARS-CoV-2,viral replication,"Vero E6, USA-WA1/2020",2.5 µM,,inhibition,45.9%
Cl.O=C(O)/C=C/c1ccc(Cn2ccnc2)cc1,rep main protease,"reporter gene (Gaussia luciferase), inhibitor",,20 µM,,inhibition,1.47%
CN(C)CC/C=C1/c2ccccc2Sc2ccc(Cl)cc21,SARS-CoV-2,"viral replication, GFP plate reader screen",,cell-based,,EC50,7.08 µM
CCCCCOc1ccc(-c2ccc(-c3ccc(C(=O)N[C@H]4C[C@@H](O)[C@@H](O)NC(=O)[C@@H]5[C@@H](O)[C@@H](C)CN5C(=O)[C@H]([C@@H](C)O)NC(=O)[C@H]([C@H](O)[C@@H](O)c5ccc(O)cc5)NC(=O)[C@@H]5C[C@@H](O)CN5C(=O)[C@H]([C@@H](C)O)NC4=O)cc3)cc2)cc1,SARS-CoV-2,,Vero,,reference: CC50 over IC50,selectivity index,8
CC(C)=CCc1c(O)ccc(C(=O)/C=C/c2ccc(O)cc2)c1O,SARS-CoV-2,viral replication,Vero E6,100 µM,,CPE inhibition,100%
CNCCC=C1c2ccccc2C=Cc2ccccc21,SARS-CoV-2,"viral replication, high-content imaging screen",BetaCov/Belgium/GHB-03021/2020,cell-based,,EC50,> 50.1 µM
O=S(=O)(NCCNC/C=C/c1ccc(Br)cc1)c1cccc2cnccc12,SARS-CoV-2,,,"concentration not given, Paris laboratory",,viral replication inhibition,inactive
CCCCc1ccc(O)cc1O,rep main protease,"reporter gene (mKate2), inhibitor",,20 µM,,inhibition,-0.934%
CCCOc1ccc(C(=O)CCN2CCCCC2)cc1,SARS-CoV-2,"viral replication, GFP plate reader screen",,cell-based,,EC50,> 100 µM
CN(C)C(=N)N=C(N)N,SARS-CoV-2,,SB2,"500 µM, unit not given",reference: DMSO,viral RNA level,0.399 and 0.309
CN1CCN(CCc2ccc(Cl)c(Cl)c2)CC1,SARS-CoV-2,"viral replication, anti-nucleoprotein immunostaining",Vero E6,,,IC50,> 10 µM
COc1ccc(C[C@@H]2c3cc(Oc4cc(C[C@@H]5c6cc(O)c(OC)cc6CCN5C)ccc4O)c(OC)cc3CCN2C)cc1,SARS-CoV-2,viral replication,Vero E6,100 µM,reference: mean of replicates,CPE inhibition,80%
COc1cc(C2C(C#N)=C(N)Oc3c2c(C)nn3-c2ccc(Cl)cc2)cc(OC)c1OC (centres unmarked),SARS-CoV-2,"RT-qPCR, refers to: viral RNA",Vero,1 µM,higher means less virus,Ct value,23.3 cycles
Cc1cc(Nc2cc(N)ncn2)c(=O)n2c1C(=O)NC21CCCCC1,SARS-CoV-2,,Vero E6,"concentration not given, NYC laboratory",,viral replication inhibition,inactive
Cc1c(-c2ccccc2)oc2c(C(=O)OCCN3CCCCC3)cccc2c1=O,SARS-CoV-2,"viral replication, anti-nucleoprotein immunostaining",Vero E6,,,IC50,> 10 µM
